Experimental data pooled from the literature.
Numbered parts are unrelated; each lists some results of a single study. ± gives the spread as reported.
Chain of UniProt P41143 (whole entry, looked up): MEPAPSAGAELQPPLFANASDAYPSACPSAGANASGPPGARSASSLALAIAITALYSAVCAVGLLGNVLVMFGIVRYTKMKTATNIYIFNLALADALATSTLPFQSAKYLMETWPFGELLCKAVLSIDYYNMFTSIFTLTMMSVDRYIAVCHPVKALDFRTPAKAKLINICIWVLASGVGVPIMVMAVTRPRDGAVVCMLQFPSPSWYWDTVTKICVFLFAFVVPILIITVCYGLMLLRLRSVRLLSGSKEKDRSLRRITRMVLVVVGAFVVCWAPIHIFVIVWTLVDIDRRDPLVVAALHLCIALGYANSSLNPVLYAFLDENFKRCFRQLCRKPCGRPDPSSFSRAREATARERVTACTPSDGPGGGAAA
Chain of UniProt P42574 (whole entry, looked up): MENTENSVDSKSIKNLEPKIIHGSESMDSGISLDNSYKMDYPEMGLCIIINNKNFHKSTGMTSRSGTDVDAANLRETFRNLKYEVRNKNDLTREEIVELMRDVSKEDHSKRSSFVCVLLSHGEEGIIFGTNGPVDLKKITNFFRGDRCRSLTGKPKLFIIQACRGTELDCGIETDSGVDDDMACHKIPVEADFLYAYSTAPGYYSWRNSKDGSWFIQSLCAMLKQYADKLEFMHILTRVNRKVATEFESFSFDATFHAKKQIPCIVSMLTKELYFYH
Chain of UniProt P06276 (whole entry, looked up): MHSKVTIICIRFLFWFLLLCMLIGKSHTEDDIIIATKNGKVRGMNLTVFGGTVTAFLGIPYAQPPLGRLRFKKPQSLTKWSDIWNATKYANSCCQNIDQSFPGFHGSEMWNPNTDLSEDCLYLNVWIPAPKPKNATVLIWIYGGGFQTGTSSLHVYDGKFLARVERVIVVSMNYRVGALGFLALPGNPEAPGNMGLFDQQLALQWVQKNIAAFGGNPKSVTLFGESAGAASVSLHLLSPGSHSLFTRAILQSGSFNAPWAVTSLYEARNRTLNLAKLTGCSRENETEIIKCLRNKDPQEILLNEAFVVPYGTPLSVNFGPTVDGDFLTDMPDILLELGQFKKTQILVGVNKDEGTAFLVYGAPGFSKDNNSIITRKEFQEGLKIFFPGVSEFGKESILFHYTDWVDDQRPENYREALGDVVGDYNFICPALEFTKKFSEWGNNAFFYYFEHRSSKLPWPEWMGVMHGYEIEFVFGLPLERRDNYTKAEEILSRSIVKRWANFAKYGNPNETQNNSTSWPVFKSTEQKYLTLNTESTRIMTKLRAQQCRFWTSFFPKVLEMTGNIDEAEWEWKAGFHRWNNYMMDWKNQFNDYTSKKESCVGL
Chain of UniProt P37136 (whole entry, looked up): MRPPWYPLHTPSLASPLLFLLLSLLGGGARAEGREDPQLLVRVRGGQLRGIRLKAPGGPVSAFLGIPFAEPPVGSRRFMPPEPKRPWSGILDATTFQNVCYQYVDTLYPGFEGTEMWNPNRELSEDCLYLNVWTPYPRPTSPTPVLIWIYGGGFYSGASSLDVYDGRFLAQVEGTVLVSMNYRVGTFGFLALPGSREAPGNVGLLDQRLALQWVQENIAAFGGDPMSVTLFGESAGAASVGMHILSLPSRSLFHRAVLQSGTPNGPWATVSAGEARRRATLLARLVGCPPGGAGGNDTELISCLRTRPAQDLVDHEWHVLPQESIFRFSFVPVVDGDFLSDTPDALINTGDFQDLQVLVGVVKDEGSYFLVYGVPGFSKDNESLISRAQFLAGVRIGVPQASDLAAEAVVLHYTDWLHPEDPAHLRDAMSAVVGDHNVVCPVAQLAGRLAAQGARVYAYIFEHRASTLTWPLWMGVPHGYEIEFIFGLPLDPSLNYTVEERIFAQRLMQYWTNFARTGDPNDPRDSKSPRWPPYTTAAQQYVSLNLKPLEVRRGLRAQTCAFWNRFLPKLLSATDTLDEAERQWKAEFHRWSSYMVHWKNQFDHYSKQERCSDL

Study 1
Molecule: SNC80
Action: agonist
| target | read-out | Emax |
| --- | --- | --- |
| Delta-type opioid receptor, with β-arrestin2 (OPRD1, Homo sapiens, UniProt P41143) | β-arrestin2 recruitment | 125 ± 4% |
| Delta-type opioid receptor, with GoA (OPRD1, Homo sapiens, UniProt P41143) | GoA activation | 115 ± 3% |
| Delta-type opioid receptor, with Gi1 (OPRD1, Homo sapiens, UniProt P41143) | Gi1 activation | 119 ± 2% |
| Delta-type opioid receptor, with GoB (OPRD1, Homo sapiens, UniProt P41143) | GoB activation | 121 ± 3% |
| Delta-type opioid receptor, with Gz (OPRD1, Homo sapiens, UniProt P41143) | Gz activation | 111 ± 3% |
| Delta-type opioid receptor, with β-arrestin1 (OPRD1, Homo sapiens, UniProt P41143) | β-arrestin1 recruitment | 154 ± 8% |
| Delta-type opioid receptor, with Gi2 (OPRD1, Homo sapiens, UniProt P41143) | Gi2 activation | 121 ± 4% |

Study 2
Molecule: deucravacitinib
Method: multiple ascending dose
Host: healthy human
Route: oral
| dose | subjects with influenza-like illness [%] |
| --- | --- |
| 4 mg twice daily | 0 |
| 2 mg twice daily | 11.1 |
| 6 mg twice daily | 0 |

Other studies, line by line
| Molecule | target or system | test | test system | conditions | measurement | value |
| --- | --- | --- | --- | --- | --- | --- |
| propranolol | – | PAMPA | 2% lecithin in dodecane | 100 µM, 17 h, pH 6.4 | permeability | 39 nm/s |
| phoxim-oxon | Ache (Rattus norvegicus, UniProt P37136) | inhibitor | rat, postnatal day 12, rat serum | – | IC50 | 0.031 µM |
| Ac-DEVD-CHO | Caspase-3 (CASP3, Homo sapiens, UniProt P42574) | enzyme activity | – | – | Hill slope | -0.99 |
| benzalkonium bromide | Cholinesterase (BCHE, Homo sapiens, UniProt P06276) | enzyme activity, inhibitor | – | with Triton | IC50 | 18.5 ± 7.8 µM |

A few entries again (study 2):
| dose | subjects with influenza-like illness [%] |
| --- | --- |
| 6 mg twice daily | 0 |
| 2 mg twice daily | 11.1 |
